Results collected from several papers.
Parts stem from different laboratories: compare values within a part only. Positions count from the first letter of the parent shown.

Study 1 — target: CCND1, cyclin fold, Cln2 fusion (human); technique: yeast growth competition, sequencing; sample: yeast; notes: weak parent motif; reference: not given; reading: higher = stronger binding; endpoint: normalised enrichment score
Parent: CDKN1B docking peptide (human); PSACRNLFGPVDH
Change = H13N; value = 0.752
Change = N6V; value = 2.42
Change = C4T; value = 0.168
Change = A3N; value = 0.303
Change = P1V; value = 0.605
Change = P10S; value = 0.473
Change = L7Y; value = -0.108
Change = G9K; value = 0.604
Change = L7N; value = -0.429
Change = H13R; value = 0.686
Change = V11W; value = 1.32
Change = H13M; value = 0.81
Change = A3L; value = 0.187
Change = R5F; value = 0.501
Change = P1R; value = 0.849
Change = F8S; value = 0.632
Change = R5H; value = 0.316
Change = H13S; value = 1.04
Change = D12H; value = 0.342
Change = C4K; value = 0.0313
Change = L7D; value = 0.515
Change = G9L; value = 0.504
Change = C4M; value = -0.156
Change = H13C; value = 0.788

Study 2 — technique: RNA Bind-n-Seq; form: RNA; sample: in vitro; tested at: 365 nM; reference: no-protein control; reading: higher = stronger binding; endpoint: RBNS enrichment (R)
Target: RNA binding protein fox-1 homolog 2, RRM domain, GST-SBP tag (RBFOX2, Homo sapiens, UniProt O43251-10, residues 100-194)
Notes: natural RNA segment, single round, ends assumed
Residues (chain): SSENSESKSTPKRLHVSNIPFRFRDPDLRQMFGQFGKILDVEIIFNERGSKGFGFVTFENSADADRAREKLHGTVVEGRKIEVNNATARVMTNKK
Oligonucleotide = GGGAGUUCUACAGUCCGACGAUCUUCCAUGGGGAGGAUGCUGAGUGAGCAGUUUCCUACCCCGUGGAUCUAGCAAGCCAUGGAGACAGGUAGCAUUUGUAAGAUGCUGCACAGGAGCAGCAUUAUCCCCAAAGUGGAAUUCUCGGGUGCCAA; value = 1.74
Oligonucleotide = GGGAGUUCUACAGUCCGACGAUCCCGCAGGGUUAGAGUGGGCUCCUUUCUUUUUGGAAUCCUUUUCUUCUCCUUUGGUAGCAGCUCCCUGCCUCCAGGGCUUCCGCCACCAGCGUCUCUGCUGUGUUGCGCAGUGGAAUUCUCGGGUGCCAA; value = 0.273
Oligonucleotide = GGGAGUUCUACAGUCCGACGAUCCCCCCUCAGGAGUAUUUUUGUUGAGGCUUUCCUGGAGGUGAAGAAGCAAUUCCCAUUGCAGCAGGUUAGAGCGAGAAUCAGACAGAGGGCAAAAACCAAUUCGCUUCUCCUGGAAUUCUCGGGUGCCAA; value = 0.537
Oligonucleotide = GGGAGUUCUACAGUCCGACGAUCCUGGGCGGGCUACCUCUGAGAACGGCUGAAAUGGUGCCCAGUCCAUCAGCAGUGAUGGAAUUUGCUGGAGGACUAGGCCAGAGCAAGCCUCACUGCCACUGUGCCUUUGGUGGAAUUCUCGGGUGCCAA; value = 0.567
Oligonucleotide = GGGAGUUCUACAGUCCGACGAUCGAUUGUAAAAGAUGAUGCCGAAGAGUUGAUGUCAAUCUUUUUUUCCUAAGAAAAAAAGUCCGCGAGUAUUAAAUAUUUAGAUCAAUGUUUAUAAAAUGAUUACUUUGUAUUGGAAUUCUCGGGUGCCAA; value = 0.546
Oligonucleotide = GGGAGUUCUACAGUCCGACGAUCAGAGCUCCCCUGUUUUCUGUUUAAUUGAUGAGCCUGGGAAAGGAGUGUGUUCUGCCUGCCCGUUACAGUGGAGCGUUCCGUGUCCAUAAAACGUUUUCUAACUGGGUGUUUGGAAUUCUCGGGUGCCAA; value = 1.84
Oligonucleotide = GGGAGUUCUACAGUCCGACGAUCUGCAGCUUACAUCAAACGAACAUGUAGUGCAUGCCCACUGCCUGAUGGCCAGAUGGCCUGUAGGAAGAGCUACCAGGGCUUCCAGACCUGUGGAACGAAGAGGAUGGGGAUGGAAUUCUCGGGUGCCAA; value = 4.7
Oligonucleotide = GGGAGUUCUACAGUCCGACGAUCGGACAGCUCAACCAUGUUGUCAUCUUACCACCAGAGGGCACAGCAGCCCUCUAAGGGUUUUCUCCUCCGGCAAUGGAUAAGGAGCCCAGCUAUGAAAGCUUUGCUUACUGUGGAAUUCUCGGGUGCCAA; value = 0.256

Study 3 — technique: aptamer microarray, sandwich; form: DNA with 2'F-ANA; sample: in vitro; tested at: 200 nM; with: Cy3 exosite-II aptamer, 400 nM; reading: higher = stronger binding; endpoint: mean fluorescence intensity; oligonucleotide: GGTTGGTGTGGTTGG
Target: Prothrombin, mature alpha-thrombin (F2, Homo sapiens, UniProt P00734)
Notes: whole 15-mer aptamer, many near background
Modification = 2'F-ANA at 3 4 5 8 9 12 13 14 15; value = 51.1 a.u.
Modification = 2'F-ANA at 4 5 6 7 10 11 12 15; value = 49.7 a.u.
Modification = 2'F-ANA at 2 3 4 5 6 7 8 10 11 12 14; value = 47.1 a.u.
Modification = 2'F-ANA at 1 2 3 4 6 9 12 13 14; value = 124 a.u.
Modification = 2'F-ANA at 5 8 9 10 11 12 13 14; value = 47.1 a.u.
Modification = 2'F-ANA at 2 3 4 8 10 13; value = 227 a.u.
Modification = 2'F-ANA at 2 4 5 6 8 11 12; value = 121 a.u.
Modification = 2'F-ANA at 2 5 8 9 10 11 14 15; value = 59.2 a.u.
Modification = 2'F-ANA at 2 4 8 12 14; value = 168 a.u.
Modification = 2'F-ANA at 1 6 8 9 14; value = 108 a.u.
Modification = 2'F-ANA at 4 6 7 8 10 14 15; value = 59.3 a.u.
Modification = 2'F-ANA at 3 5 7 8 11 14; value = 59.7 a.u.
Modification = 2'F-ANA at 4 7 8 9 12 13 14 15; value = 101 a.u.
Modification = 2'F-ANA at 1 2 3 4 5 6 12 14 15; value = 77 a.u.
Modification = 2'F-ANA at 1 6 7 10 12 13 15; value = 81.2 a.u.
Modification = 2'F-ANA at 2 5 7 10 14 15; value = 90.6 a.u.
Modification = 2'F-ANA at 2 6 9 10 12 14; value = 88 a.u.
Modification = 2'F-ANA at 1 2 6 7 8 11 13; value = 124 a.u.
Modification = 2'F-ANA at 2 6 8 9 12 14; value = 146 a.u.
Modification = 2'F-ANA at 1 4 5 9 14 15; value = 42 a.u.
Modification = 2'F-ANA at 1 4 6 9 10 11 15; value = 49 a.u.
Modification = 2'F-ANA at 1 2 4 6 9 13 14; value = 49 a.u.

Study 4 — technique: RNA Bind-n-Seq; form: RNA; sample: in vitro; tested at: 20 nM; notes: 6-mer, flanks averaged, single round; with: 150 mM KCl; reference: input library; reading: higher = stronger binding; endpoint: 6-mer enrichment (R)
Target: TAR DNA-binding protein 43, full length, His tag (TARDBP, Homo sapiens, UniProt Q13148, residues 1-414)
Oligonucleotide = CGAGCC; value = 0.814
Oligonucleotide = UUGUGC; value = 0.801
Oligonucleotide = GGAGUC; value = 1.37
Oligonucleotide = ACUUUU; value = 0.66
Oligonucleotide = ACGAGG; value = 1.91
Oligonucleotide = CUCAAA; value = 0.601
Oligonucleotide = ACGUCC; value = 0.622
Oligonucleotide = AGACGA; value = 0.836
Oligonucleotide = CUAUUU; value = 0.632
Oligonucleotide = CAUCCC; value = 0.606
Oligonucleotide = CCAAAU; value = 0.642
Oligonucleotide = UUGGAG; value = 1.32
Oligonucleotide = UUUCGA; value = 0.578
Oligonucleotide = GCGUUC; value = 0.765
Oligonucleotide = GGGACA; value = 2.2
Oligonucleotide = UUAAUU; value = 0.627
Oligonucleotide = AGGAUC; value = 0.739
Oligonucleotide = UCAUAG; value = 0.626
Oligonucleotide = GGGGGU; value = 7.61

A few entries again (study 1):
Change = P1R; value = 0.849
Change = D12H; value = 0.342
Change = R5F; value = 0.501
Change = F8S; value = 0.632
Change = C4K; value = 0.0313
Change = C4M; value = -0.156
